Published values from different studies.
Each numbered part is a random draw from the data of one study; scales do not carry over between parts. Positions count from the first letter of the parent shown.

Set 1
Target: CCND2, cyclin fold, Cln2 fusion (human)
Technique: yeast growth competition, sequencing
Sample: yeast
Notes: weak parent motif
Baseline: not given
Reading: higher = stronger binding
Parent: ITGB3BP docking peptide (human); MPVKRSLKLDGLL; partner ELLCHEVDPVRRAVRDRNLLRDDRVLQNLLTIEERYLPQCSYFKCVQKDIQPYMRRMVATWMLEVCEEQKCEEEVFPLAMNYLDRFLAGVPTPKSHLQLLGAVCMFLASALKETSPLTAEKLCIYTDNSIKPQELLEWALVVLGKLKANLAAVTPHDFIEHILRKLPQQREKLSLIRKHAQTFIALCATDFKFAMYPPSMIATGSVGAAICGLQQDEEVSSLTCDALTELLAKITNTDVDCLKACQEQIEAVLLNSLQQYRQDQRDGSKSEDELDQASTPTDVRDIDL
| Change | normalised enrichment score |
| --- | --- |
| L12A | 0.117 |
| L13A | 0.143 |
| L9A | 0.221 |
| P2A | 0.124 |
| R5K L9F | -0.0795 |
| G11A | 0.0141 |
| V3A | 0.554 |

Set 2
Target: RNA binding protein fox-1 homolog 2, RRM domain, GST-SBP tag (RBFOX2, Homo sapiens, UniProt O43251-10, residues 100-194)
Technique: RNA Bind-n-Seq
Molecule type: RNA
Sample: in vitro
Tested at: 365 nM
Notes: natural RNA segment, single round, ends assumed
Baseline: no-protein control
Reading: higher = stronger binding
All sequences stand within: GGGAGUUCUACAGUCCGACGAUC … UGGAAUUCUCGGGUGCCAA
Construct (chain): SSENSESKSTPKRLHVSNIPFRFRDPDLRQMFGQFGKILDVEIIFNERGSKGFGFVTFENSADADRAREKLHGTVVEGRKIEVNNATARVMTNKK
| Oligonucleotide | RBNS enrichment (R) |
| --- | --- |
| GGUUUUCUAUUAAGGUCUCUGCCCCAGGCAUGGUGCUCUAUAUCUUGGCCAAAUAAAUUACUUUCCUUGAAUAUCCAGGAAUCUUUUAGUCUAAAGCAAUGAGGAGUUAU | 0.394 |
| CUUUGGAUCUAGACCUGGGGCCAGAUGUAUCUAGUGGAUAGACUUGCAGGGCCAUGCAGGCCGGACUCGUUGCCUUAAUUCAAGAACCUGUGUCUAUGUGUAUGUACACA | 0.286 |
| UGUGCCCUUGGGCUGAGCCCUAGACUUGGGGCUCUGUACAUAGCUAUGAAGAAAAACACAAAGUGUAUAAAUCUUGAGUAUAUAUUUACAUGUCUUUUUAAAAAGGGUCG | 0.317 |
| GAAAAUGGAGAGCUAUGUAACAGAUACACUACAGUAGAAGAACUUACUUCUGAAAUGAAGGGAAAAAAACCACCCCAUCGUUCCCUACUCCUCCCCACCACUUACCCGUU | 0.466 |
| AAAUCAUGUUUAAAAUGAUAAAACUCCAUCUUAUAUAUAGACUUUUGUAUAGCUUCAAGAACUUUAUACCUGUACAGCUCUAACAUGACACUGCUCCACUCAGUAUUCAU | 1.09 |
| AGAAGUUCGGGAAGGUUCACUCUUCCAUAUGCGCUUUUAGGUGAUCAGCCCUCCAUUCCGUCUAGCUGCCUUAGUAAGGAACCUGGGGGUGUGGUUAGUGGAAGACCUGG | 0.45 |
| GUCGCUGGAGUAAAAUCUUGCCUUUAGAAACUAGGUUGAGCUGUUCAGAAAGGUCAAUUCUCUUCUGUAUUCCCCCUCAACAUUUAUCUGGGUCUAAAGCUCAGCACUGA | 0.316 |
| CUGGCUAGCCCAAGGGCCCUGCCAUGUUCUCCCCACAUCCGUAAAUAAACUUCCUUUCCCACACUGUAUCUGUGAGGAGGUUUCCUUGCCAGGUGUCUGAGGGCUCUGGA | 0.32 |
| UGGUUCCUUUAACUCUUCACCAAGUCCUCUAGCUGUAUUUCUGAAGGCUCUCACACUUCUUCUGUGAAGCGUGGGCUUCAUUUCCAUGGCCCUGAGGCCCAGAGAGACAG | 0.316 |
| AGAAGUUCCUCUGCCUGGAGCUGUCAUCUCAGCCGCUCCCUUAGAAAGUGCCCUUCAACGGACCCUGUUCACUGCUGCACUUCUCAAUGAAUUAAAACUGACUUCUGUUC | 0.324 |
| GUCAACCAAAGAUGGCAUGACUUACCUGCGCAGAUUUGGAAGCAUUGAACUUAGAGUGCUGGCUCUGCUAUAUGGUACAACUAAUGCUAGACCUACAGUUUAUGUAUACA | 0.668 |
| CUCCCCCUUCUGCAUAGAGGAAAUCCCAGUGUGUGACAGCCCUUAAGGUUCCUGUGGACUUUGUGUACCAAGGUGUCCAGUGCCACCAACACUGACCUGGGGCCUUUACA | 0.27 |

Set 3
Target: Histone acetyltransferase KAT6A, winged helix 2, GST fusion (KAT6A, Homo sapiens, UniProt Q92794, residues 85-181)
Technique: protein binding microarray
Molecule type: double-stranded DNA, one strand shown
Sample: in vitro
Tested at: not given
Notes: 8-mer, flanks averaged, mean of 2 arrays, mostly near background
Baseline: not given
Reading: higher = stronger binding
Target sequence (chain): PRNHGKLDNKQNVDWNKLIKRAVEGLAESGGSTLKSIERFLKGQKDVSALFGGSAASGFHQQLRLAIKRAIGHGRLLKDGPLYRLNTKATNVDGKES
| Oligonucleotide | E-score |
| --- | --- |
| CTCTATGC | -0.0509 |
| ATTCTCGA | -0.0193 |
| AACAGTCT | -0.247 |
| ATGTAAGA | 0.00058 |
| GCCCTCAA | 0.00296 |
| CGAGACGC | -0.00374 |
| AACCATCA | -0.0855 |
| GAGGCCTA | -0.128 |
| CTGCGACC | 0.0392 |
| AGCCCGCA | 0.0504 |
| TCTGTTCA | -0.114 |
| ACAAAAGT | 0.00609 |
| AGAAAGCC | 0.0244 |
| TACGCCCA | 0.0731 |
| ATTACTGA | -0.0903 |
| GAGTAATA | 0.012 |
| CCTATAAA | -0.225 |
| CAAAAATC | 0.045 |
| AAATATTT | 0.142 |
| ATGGGGCA | -0.00941 |

Set 4
Target: CDC34 UBC core domain (UniProt P49427)
Technique: yeast two-hybrid
Sample: yeast
Notes: mostly zero background
Baseline: not given
Reading: higher = stronger interaction
B1: RNF10 RING domain (UniProt Q8N5U6); chain VRICSHEVPSCPICLYPPTAAKITRCGHIFCWACILHYLSLSEKTWSKCPICYSSVHKKDLKS
B2: UBE4B RING domain (UniProt O95155); chain KNARAEIDYSDAPDEFRDPLMDTLMTDPVRLPSGTIMDRSIILRHLLNSPTDPFNRQTLTESMLEPVPELKEQIQAWMREKQNSDH
B3: TRIM2 RING domain (UniProt Q9C040); chain VRQIDKQFLICSICLERYKNPKVLPCLHTFCERCLQNYIPAHSLTLSCPVCRQTSILPEKGV
B4: TRIM68 RING domain (UniProt Q6AZZ1); chain LVEAIVEEVACPICMTFLREPMSIDCGHSFCHSCLSGLWEIPGESQNWGYTCPLCRAPVQPRNLRP
B5: MARCHF2 RING domain (UniProt Q9P0N8); chain RLLSTVIRALDTPSDGPFCRICHEGANGECLLSPCGCTGTLGAVHKSCLEKWLSSSNTSYCELCHTEFAVEKRPRPLTEWL
B6: RNF115 RING domain (UniProt Q9Y4L5); chain TQEQVDMGLECPVCKEDYTVEEEVRQLPCNHFFHSSCIVPWLELHDTCPVCRKSLNGEDSTR
B7: TRIM47 RING domain (UniProt Q96LD4); chain MDGSGPFSCPICLEPLREPVTLPCGHNFCLACLGALWPHRGASGAGGPGGAARCPLCQEPFPDGLQLR
Target sequence (chain): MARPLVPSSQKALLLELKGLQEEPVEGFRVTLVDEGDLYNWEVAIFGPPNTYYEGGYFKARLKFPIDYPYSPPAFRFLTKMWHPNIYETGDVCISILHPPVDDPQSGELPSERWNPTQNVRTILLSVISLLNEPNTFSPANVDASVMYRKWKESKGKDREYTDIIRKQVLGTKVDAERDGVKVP
| Molecule | lacZ reporter activity |
| --- | --- |
| B1 (RNF10 RING domain) | 0 |
| B2 (UBE4B RING domain) | 0 |
| B3 (TRIM2 RING domain) | 0 |
| B4 (TRIM68 RING domain) | 0 |
| B5 (MARCHF2 RING domain) | 0 |
| VPADASPDSKCPICLDRFDNVSYLDRCLHKFCFRCVQEWSKNKAECPLCKQPFDSIFHSV (TOPORS RING domain (UniProt Q9NS56)) | 0 |
| B6 (RNF115 RING domain) | 0 |
| B7 (TRIM47 RING domain) | 0 |
| EIKDYKARLTCPCCNMRKKDAVLTKCFHVFCFECVKTRYDTRQRKCPKCNAAFGANDFHR (RNF20 RING domain (UniProt Q5VTR2)) | 0 |

Set 5
Target: Interferon regulatory factor 7, full length, phosphomimetic (IRF7, Homo sapiens, UniProt Q92985, residues 1-503, S471D/S472D/S475D/S476D/S477D/S483D/S484D/S487D)
Technique: protein-binding microarray
Molecule type: double-stranded DNA, one strand shown
Sample: in vitro
Tested at: 2200 nM top
Notes: 60-bp whole probe
Added: salmon DNA 0.4 mg/ml
Baseline: random background probes
Reading: higher = stronger binding
All sequences stand within: GCCTAGCAC … GTCTTGATTCGCTTGACGCTGCTG
Residues (chain): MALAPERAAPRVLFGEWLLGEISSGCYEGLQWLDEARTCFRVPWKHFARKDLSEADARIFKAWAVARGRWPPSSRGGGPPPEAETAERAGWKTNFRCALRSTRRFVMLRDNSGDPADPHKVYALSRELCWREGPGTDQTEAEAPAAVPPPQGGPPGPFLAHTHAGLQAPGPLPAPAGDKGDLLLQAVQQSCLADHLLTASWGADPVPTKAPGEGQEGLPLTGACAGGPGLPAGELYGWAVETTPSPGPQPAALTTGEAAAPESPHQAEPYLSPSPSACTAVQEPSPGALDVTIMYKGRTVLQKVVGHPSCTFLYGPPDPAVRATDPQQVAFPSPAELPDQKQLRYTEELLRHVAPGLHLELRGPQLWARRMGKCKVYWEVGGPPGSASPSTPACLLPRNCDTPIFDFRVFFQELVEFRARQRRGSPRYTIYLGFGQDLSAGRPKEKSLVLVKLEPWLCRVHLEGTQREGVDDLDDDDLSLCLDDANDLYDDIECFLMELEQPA
| Oligonucleotide | fitted relative affinity |
| --- | --- |
| GACCAACTGAGACTGGAGACGTGCTAG | -0.277 z-score |
| TTGTTTTTTTCTATATGCAAGTGCTAG | 2.61 z-score |
| TTTGGTTCCCTTTTCCTTTAGTGCTAG | 3.93 z-score |
| TTAGGTTTCGTTTTCGGTTAGTGCTAG | 15.4 z-score |
| GACGATATCGGGACTTGAGACGTGCTA | -0.111 z-score |
| TCAAGTCCCATGTTGCAGACTGTGCTA | 0.465 z-score |
| GACGGTCTCGGACCGGGGACGTGCTAG | -0.584 z-score |
| GACGGACTGCTACTGCGGACGTGCTAG | -0.498 z-score |
| TCATGGTTCTGCTTCTTACTGTGCTAG | 1.57 z-score |
| GACAGACTGGGTATCGGGACGTGCTAG | -0.524 z-score |
| TTAGGACTGGACTTTCGGTTGGTGCTA | 7.07 z-score |
| GACGATCTCAGGCTGGAGACGTGCTAG | 0.127 z-score |
| GACTGTATCGGACTGGGGACGTGCTAG | 0.221 z-score |
| TTGGGTCTCCTTCTCCTTTAGTGCTAG | 1.04 z-score |
| GACGGTATCGGACTGGGGGCGTGCTAG | 0.0301 z-score |
| TTAGGGCTCGGTCTCGGTTAGTGCTAG | -0.542 z-score |
| TCAGGACTCGGGTCTCCCACTGTGCTA | 0.748 z-score |
| GACGAACTGTGACTGGAGACGTGCTAG | 0.0492 z-score |

Set 6
Target: MAFF, bZIP domain (human)
Technique: DHFR protein complementation
Sample: yeast
Notes: single substitutions, most at no-binding floor
Baseline: wild-type JUN-FOS pair
Reading: higher = stronger binding
Parent: JUN, bZIP domain (human); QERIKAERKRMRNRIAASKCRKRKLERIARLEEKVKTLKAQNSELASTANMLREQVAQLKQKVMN; partner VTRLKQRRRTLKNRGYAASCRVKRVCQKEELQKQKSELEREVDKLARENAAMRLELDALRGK
| Change | binding fitness [natural log] |
| --- | --- |
| E32K | -1.46 |
| A57Q | -1.4 |
| A57R | -1.41 |
| M51W | -1.35 |
| N42P | -1.55 |
| L38N | -1.5 |
| A40E | -1.45 |
| E44F | -1.54 |
| A49T | -1.43 |
| Q41K | -1.3 |
| A49D | -1.36 |
| E32H | -1.49 |
| Q41R | -1.54 |
| A49S | -1.48 |
| L52G | -1.56 |
| R53V | -1.53 |
| Q41S | -1.52 |
| L45D | -1.52 |

Repeated from above (set 3):
| Oligonucleotide | E-score |
| --- | --- |
| TCTGTTCA | -0.114 |
| ACAAAAGT | 0.00609 |
| AGAAAGCC | 0.0244 |
| TACGCCCA | 0.0731 |
| ATTACTGA | -0.0903 |
| GAGTAATA | 0.012 |
| CCTATAAA | -0.225 |
| CAAAAATC | 0.045 |
